{"data": "Published values of several laboratories", "note": "A part holds a random share of what one study measured."}
{"data": "Set 1", "target": "Interferon regulatory factor 5, full length, phosphomimetic (IRF5, Homo sapiens, UniProt Q13568-2, residues 1-514, K96S/S451D/S453D/S456D/S462D)", "technique": "protein-binding microarray", "form": "double-stranded DNA, one strand shown", "matrix": "in vitro", "tested at": "250 nM", "setting": "60-bp whole probe", "added": "salmon DNA 0.4 mg/ml", "baseline": "random background probes", "reading": "higher = stronger binding", "constant ends, left off below": "GCCTAGCAC … GTCTTGATTCGCTTGACGCTGCTG"}
{"Oligonucleotide": "TTAGGTTTTGGTTTCGGTTAGTGCTAG", "log fluorescence": "10.6 z-score"}
{"Oligonucleotide": "TGTTGGTAATTTTGCTATTTGTGCTAG", "log fluorescence": "0.56 z-score"}
{"Oligonucleotide": "GACGGTATCCGTTTCGGGACGTGCTAG", "log fluorescence": "2.83 z-score"}
{"Oligonucleotide": "TCAATTATTGTTTCCTCACTGTGCTAG", "log fluorescence": "1.23 z-score"}
{"Oligonucleotide": "GAGGATTTCAGTCTCGAGACGTGCTAG", "log fluorescence": "0.898 z-score"}
{"Oligonucleotide": "GACGAACTGGGGACTGGAGACGTGCTA", "log fluorescence": "-0.688 z-score"}
{"Oligonucleotide": "TCACATGTGGGTTCCATACTGTGCTAG", "log fluorescence": "-0.0851 z-score"}
{"Oligonucleotide": "GACGGACTGGGACTGAGGACGTGCTAG", "log fluorescence": "-0.767 z-score"}
{"Oligonucleotide": "GCGCCTTGATGTCTGGGTCTGTGCTAG", "log fluorescence": "-0.206 z-score"}
{"Oligonucleotide": "TCAATCTTCAAGACTCATACTGTGCTA", "log fluorescence": "0.561 z-score"}
{"Oligonucleotide": "GACCATTTCAGTTTCGAGACGTGCTAG", "log fluorescence": "7.05 z-score"}
{"Oligonucleotide": "CTGCTAGGGCACACAAGTCAGTGCTAG", "log fluorescence": "-0.92 z-score"}
{"Oligonucleotide": "TTAGATTTCAGTCTCGATTCGTGCTAG", "log fluorescence": "2.43 z-score"}
{"Oligonucleotide": "GACGATTTCGGGTTTCGATACGTGCTA", "log fluorescence": "7.66 z-score"}
{"Oligonucleotide": "GACGGTATCCTTATCCCGACGTGCTAG", "log fluorescence": "0.00233 z-score"}
{"Oligonucleotide": "GACGAACTGGGGTTTCTAGACGTGCTA", "log fluorescence": "-0.132 z-score"}
{"Oligonucleotide": "TTAGGACTGGGGTTTCGGATAGTGCTA", "log fluorescence": "1.87 z-score"}
{"Oligonucleotide": "GACGGTCTCGGTCTCTGGACGTGCTAG", "log fluorescence": "0.088 z-score"}
{"Oligonucleotide": "GACCGACTGGACTTTCGGGACGTGCTA", "log fluorescence": "4.85 z-score"}
{"Oligonucleotide": "TTAGAACTGAGGTTTCGATTAGTGCTA", "log fluorescence": "5.94 z-score"}
{"Oligonucleotide": "GACGGTTTCCTTATCCTGCCGTGCTAG", "log fluorescence": "0.732 z-score"}
{"data": "Set 2", "target": "Sal-like protein 4, full length isoform A (SALL4, Homo sapiens, UniProt Q9UJQ4, residues 1-1053)", "technique": "universal PBM", "form": "double-stranded DNA, one strand shown", "matrix": "in vitro", "tested at": "600 nM", "setting": "8-mer, flanks averaged, mean of replicates", "reading": "higher = stronger binding", "UniProt Q9UJQ4, sequence (whole entry, looked up)": "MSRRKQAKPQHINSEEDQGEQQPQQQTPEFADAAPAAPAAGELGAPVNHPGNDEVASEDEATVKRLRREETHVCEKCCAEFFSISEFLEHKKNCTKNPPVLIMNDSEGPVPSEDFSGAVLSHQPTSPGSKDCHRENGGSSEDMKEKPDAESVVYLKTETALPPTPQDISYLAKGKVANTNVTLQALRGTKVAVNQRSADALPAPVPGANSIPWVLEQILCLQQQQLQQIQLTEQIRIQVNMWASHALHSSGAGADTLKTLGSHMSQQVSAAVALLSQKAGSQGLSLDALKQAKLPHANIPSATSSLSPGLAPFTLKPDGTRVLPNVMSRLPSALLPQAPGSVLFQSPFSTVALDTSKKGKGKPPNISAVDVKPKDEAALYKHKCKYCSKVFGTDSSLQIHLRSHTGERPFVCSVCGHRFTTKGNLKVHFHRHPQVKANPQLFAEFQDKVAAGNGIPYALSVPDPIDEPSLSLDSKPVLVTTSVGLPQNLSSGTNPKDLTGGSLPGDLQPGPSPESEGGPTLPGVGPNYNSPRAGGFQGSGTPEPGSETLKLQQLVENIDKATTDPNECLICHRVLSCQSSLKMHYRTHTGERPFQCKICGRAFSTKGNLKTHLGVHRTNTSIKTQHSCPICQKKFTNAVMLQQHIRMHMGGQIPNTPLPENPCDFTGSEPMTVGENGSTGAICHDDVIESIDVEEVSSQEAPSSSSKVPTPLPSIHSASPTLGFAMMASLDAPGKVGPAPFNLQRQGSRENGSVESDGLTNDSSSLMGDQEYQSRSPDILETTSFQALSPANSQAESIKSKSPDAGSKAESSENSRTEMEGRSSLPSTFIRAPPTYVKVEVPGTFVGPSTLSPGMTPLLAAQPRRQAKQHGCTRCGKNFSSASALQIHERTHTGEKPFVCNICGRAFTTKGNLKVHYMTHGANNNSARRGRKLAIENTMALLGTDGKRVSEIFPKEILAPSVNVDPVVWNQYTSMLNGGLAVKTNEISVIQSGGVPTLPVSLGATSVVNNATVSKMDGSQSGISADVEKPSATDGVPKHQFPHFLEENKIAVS"}
{"Oligonucleotide": "AGCAGTTG", "E-score": -0.262}
{"Oligonucleotide": "AACTGTGT", "E-score": 0.0544}
{"Oligonucleotide": "AAAAATAC", "E-score": 0.282}
{"Oligonucleotide": "CGCACAAG", "E-score": -0.101}
{"Oligonucleotide": "GTAATACA", "E-score": 0.286}
{"Oligonucleotide": "CATTAGAC", "E-score": 0.00656}
{"Oligonucleotide": "AGTTAAAG", "E-score": 0.0512}
{"Oligonucleotide": "ATACTCTA", "E-score": 0.195}
{"Oligonucleotide": "AGGCTAAG", "E-score": -0.208}
{"Oligonucleotide": "CTAAACCA", "E-score": 0.0717}
{"Oligonucleotide": "ATTATTGC", "E-score": 0.369}
{"Oligonucleotide": "CACCACAC", "E-score": -0.071}
{"Oligonucleotide": "TAAAACCA", "E-score": 0.219}
{"Oligonucleotide": "ATGTTGGA", "E-score": 0.177}
{"Oligonucleotide": "ACGGTCGA", "E-score": -0.111}
{"Oligonucleotide": "AAGCACAC", "E-score": -0.173}
{"Oligonucleotide": "CCGTTTCG", "E-score": -0.152}
{"Oligonucleotide": "TGCTCAAA", "E-score": 0.0526}
{"Oligonucleotide": "CGAAACAA", "E-score": 0.121}
{"Oligonucleotide": "CAATGCCG", "E-score": -0.134}
{"Oligonucleotide": "ATGACATC", "E-score": 0.156}
{"Oligonucleotide": "GCTATCGA", "E-score": -0.0358}
{"Oligonucleotide": "TCGTTAGA", "E-score": 0.149}
{"Oligonucleotide": "TTAGGGAA", "E-score": 0.195}
{"Oligonucleotide": "AGCTTGGA", "E-score": -0.275}
{"data": "Set 3", "target": "Histone acetyltransferase KAT6A, winged helix 1, GST fusion (KAT6A, Homo sapiens, UniProt Q92794, residues 1-85)", "technique": "protein binding microarray", "form": "double-stranded DNA, one strand shown", "matrix": "in vitro", "tested at": "not given", "setting": "8-mer, flanks averaged, mean of 2 arrays, mostly near background", "baseline": "not given", "reading": "higher = stronger binding", "Target sequence (chain)": "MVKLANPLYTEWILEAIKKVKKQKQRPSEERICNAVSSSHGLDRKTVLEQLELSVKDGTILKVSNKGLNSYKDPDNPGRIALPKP"}
{"Oligonucleotide": "ACCCTGAG", "E-score": -0.0124}
{"Oligonucleotide": "CCGCGTGC", "E-score": 0.369}
{"Oligonucleotide": "AGGTTACC", "E-score": 0.0481}
{"Oligonucleotide": "ATATAAAC", "E-score": -0.0298}
{"Oligonucleotide": "CATACGAA", "E-score": -0.0305}
{"Oligonucleotide": "ACAGAAAC", "E-score": -0.2}
{"Oligonucleotide": "GGATAGCC", "E-score": 0.0627}
{"Oligonucleotide": "CAAAGACG", "E-score": 0.0907}
{"Oligonucleotide": "GAGTCCCC", "E-score": -0.235}
{"Oligonucleotide": "CGGCCCGA", "E-score": 0.299}
{"Oligonucleotide": "AGGAGATC", "E-score": -0.156}
{"Oligonucleotide": "CGATGAAC", "E-score": -0.0101}
{"Oligonucleotide": "ACAACAAA", "E-score": -0.047}
{"Oligonucleotide": "CACAGACA", "E-score": -0.239}
{"Oligonucleotide": "AATAGTTG", "E-score": -0.0898}
{"Oligonucleotide": "AAGATTCA", "E-score": -0.154}
{"Oligonucleotide": "GCTCCGGA", "E-score": 0.127}
{"Oligonucleotide": "GAAGTATA", "E-score": 0.04}
{"Oligonucleotide": "CACTGTTC", "E-score": -0.211}
{"Oligonucleotide": "AGAAATAT", "E-score": -0.0127}
{"Oligonucleotide": "CTCTGTAC", "E-score": 0.012}
{"Oligonucleotide": "AGTCTTGG", "E-score": -0.117}
{"Oligonucleotide": "AAGAAGAC", "E-score": -0.22}
{"Oligonucleotide": "AGGCCCAC", "E-score": -0.133}
{"Oligonucleotide": "GCGCGGTA", "E-score": 0.433}
{"data": "Set 4", "target": "Fragile X messenger ribonucleoprotein 1, C-terminal low-complexity region (Fmr1, Mus musculus, UniProt P35922)", "technique": "RNA Bind-n-Seq", "form": "RNA", "matrix": "in vitro", "tested at": "200 nM", "setting": "whole 134-nt RNA, ends assumed", "added": "150 mM LiCl", "baseline": "input library", "reading": "higher = stronger binding", "library": "7-deaza-guanosine replaces G"}
{"Oligonucleotide": "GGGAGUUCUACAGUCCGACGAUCUGGCCCUGGUGGCAUGCGGGGAGGAAGAGGUGGCCUCGUGGAUCGUGGUGGUCCCGGUGGAAUGUUCAGAGGUGGCCGUGGUGGAGACAGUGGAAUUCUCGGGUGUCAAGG", "log2 enrichment": 0.218}
{"Oligonucleotide": "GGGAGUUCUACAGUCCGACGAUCCAAGCCAAGGAAAUGGUGUUAGAGUUAAUUCGUGAUCAAGGCGGUUUCAGAGAAGUUCGGAAUGAGUAUGGGUCAAGAAUAGGAGGAAAUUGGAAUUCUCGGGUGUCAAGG", "log2 enrichment": -1.88}
{"Oligonucleotide": "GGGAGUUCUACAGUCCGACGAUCUCAAGUCCUGUGCUACACAUCGUAUGUACCGAAUCGGUUGGGGUUGGGGUUGGGAAAGUAUUAUGUUACGCCGUUCGGAUCUGCACUUCCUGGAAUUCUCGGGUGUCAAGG", "log2 enrichment": -1.41}
{"Oligonucleotide": "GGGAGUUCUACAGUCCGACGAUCUAACUUUAGAGGGGGAUCUGAUGGAUAUGGCAGUGGACGUGGAUUUGGGGAUGGCUAUAAUGGGUAUGGAGGAGGACCUGGAGGUGGCAAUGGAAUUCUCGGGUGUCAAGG", "log2 enrichment": 0.521}
{"Oligonucleotide": "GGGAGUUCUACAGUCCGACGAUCGUCCUGUGCUACACAUCGUAUGUACCGAAUCGGGUUUUUGGGUUUUUUUGGGUUUGGGAAAGUAUUAUGUUACGCCGUUCGGAUCUGCACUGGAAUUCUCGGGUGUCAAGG", "log2 enrichment": -0.186}
{"Oligonucleotide": "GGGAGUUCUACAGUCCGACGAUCCACAGACAACACGCACCCACACAGACACAGAGGGAAGGGGUUGGGAUGGCGACAGGGUGCACAGCAGGGCGGGGUAGGACCCCAGCCCCUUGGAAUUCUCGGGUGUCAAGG", "log2 enrichment": 0.148}
{"Oligonucleotide": "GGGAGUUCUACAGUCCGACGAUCUCCUGUGCUACACAUCGUAUGUACCGAAUCAAACCCCCCCAAAUUUUUAAAUUUUUAAAAAAGUAUUAUGUUACGCCGUUCGGAUCUGCAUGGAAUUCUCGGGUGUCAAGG", "log2 enrichment": 1.99}
{"Oligonucleotide": "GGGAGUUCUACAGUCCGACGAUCAGUCCUGUGCUACACAUCGUAUGUACCGAAUCGGGAAAGGGAAAAAGGGAAAAAGGGAAAGUAUUAUGUUACGCCGUUCGGAUCUGCACUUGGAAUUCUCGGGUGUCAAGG", "log2 enrichment": -0.7}
{"Oligonucleotide": "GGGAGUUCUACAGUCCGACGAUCAGUCCUGUGCUACACAUCGUAUGUACCGAAUCGGGGUGGGGUUUUUUUGGGGAGGGGAAAGUAUUAUGUUACGCCGUUCGGAUCUGCACUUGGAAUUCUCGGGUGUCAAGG", "log2 enrichment": 0.327}
{"Oligonucleotide": "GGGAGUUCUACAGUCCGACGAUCUAACUUUAGAGGAGGAUCGGAUGGAUAUGGCAGUGGACGUGGAUUUGGGGAUGGCUAUAAUGGGUAUGGAGGAGGACCUGGAGGUGGCAAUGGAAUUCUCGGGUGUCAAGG", "log2 enrichment": 0.584}
{"Oligonucleotide": "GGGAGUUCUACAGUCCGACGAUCUCCUCAAGUCCUGUGCUACACAUCGUAUGUACCGAAUCGGGUGGGGUGGUGGAAAGUAUUAUGUUACGCCGUUCGGAUCUGCACUUCCAGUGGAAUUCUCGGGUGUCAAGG", "log2 enrichment": -0.508}
{"note": "Excerpt of the above (set 2):"}
{"Oligonucleotide": "GCTATCGA", "E-score": -0.0358}
{"Oligonucleotide": "TCGTTAGA", "E-score": 0.149}
{"Oligonucleotide": "TTAGGGAA", "E-score": 0.195}
{"Oligonucleotide": "AGCTTGGA", "E-score": -0.275}
